Measurements pooled from the literature.
Lines come from different studies, so protocols differ. ± gives the spread as reported.
CYP3A4: Cytochrome P450 3A4 (CYP3A4, Homo sapiens, UniProt P08684)
Chain of UniProt P08684 (whole entry, looked up): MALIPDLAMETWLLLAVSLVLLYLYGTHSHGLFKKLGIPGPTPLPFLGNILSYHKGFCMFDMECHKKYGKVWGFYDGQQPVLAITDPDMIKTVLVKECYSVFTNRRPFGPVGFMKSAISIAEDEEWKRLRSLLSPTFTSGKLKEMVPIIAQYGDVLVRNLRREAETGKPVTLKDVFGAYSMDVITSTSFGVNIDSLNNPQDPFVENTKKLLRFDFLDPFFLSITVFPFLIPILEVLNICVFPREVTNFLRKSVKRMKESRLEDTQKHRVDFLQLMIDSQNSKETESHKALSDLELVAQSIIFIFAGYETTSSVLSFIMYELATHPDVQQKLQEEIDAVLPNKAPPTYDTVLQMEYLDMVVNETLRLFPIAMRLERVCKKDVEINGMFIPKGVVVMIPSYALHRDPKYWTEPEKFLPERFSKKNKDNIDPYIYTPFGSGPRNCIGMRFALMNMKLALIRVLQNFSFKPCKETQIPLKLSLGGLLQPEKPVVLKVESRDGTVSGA
CTSB: Cathepsin B (CTSB, Homo sapiens, UniProt P07858)
CACNA1C: Voltage-dependent L-type calcium channel subunit alpha-1C (CACNA1C, Homo sapiens, UniProt Q13936)
Chain of UniProt Q13936 (whole entry, looked up): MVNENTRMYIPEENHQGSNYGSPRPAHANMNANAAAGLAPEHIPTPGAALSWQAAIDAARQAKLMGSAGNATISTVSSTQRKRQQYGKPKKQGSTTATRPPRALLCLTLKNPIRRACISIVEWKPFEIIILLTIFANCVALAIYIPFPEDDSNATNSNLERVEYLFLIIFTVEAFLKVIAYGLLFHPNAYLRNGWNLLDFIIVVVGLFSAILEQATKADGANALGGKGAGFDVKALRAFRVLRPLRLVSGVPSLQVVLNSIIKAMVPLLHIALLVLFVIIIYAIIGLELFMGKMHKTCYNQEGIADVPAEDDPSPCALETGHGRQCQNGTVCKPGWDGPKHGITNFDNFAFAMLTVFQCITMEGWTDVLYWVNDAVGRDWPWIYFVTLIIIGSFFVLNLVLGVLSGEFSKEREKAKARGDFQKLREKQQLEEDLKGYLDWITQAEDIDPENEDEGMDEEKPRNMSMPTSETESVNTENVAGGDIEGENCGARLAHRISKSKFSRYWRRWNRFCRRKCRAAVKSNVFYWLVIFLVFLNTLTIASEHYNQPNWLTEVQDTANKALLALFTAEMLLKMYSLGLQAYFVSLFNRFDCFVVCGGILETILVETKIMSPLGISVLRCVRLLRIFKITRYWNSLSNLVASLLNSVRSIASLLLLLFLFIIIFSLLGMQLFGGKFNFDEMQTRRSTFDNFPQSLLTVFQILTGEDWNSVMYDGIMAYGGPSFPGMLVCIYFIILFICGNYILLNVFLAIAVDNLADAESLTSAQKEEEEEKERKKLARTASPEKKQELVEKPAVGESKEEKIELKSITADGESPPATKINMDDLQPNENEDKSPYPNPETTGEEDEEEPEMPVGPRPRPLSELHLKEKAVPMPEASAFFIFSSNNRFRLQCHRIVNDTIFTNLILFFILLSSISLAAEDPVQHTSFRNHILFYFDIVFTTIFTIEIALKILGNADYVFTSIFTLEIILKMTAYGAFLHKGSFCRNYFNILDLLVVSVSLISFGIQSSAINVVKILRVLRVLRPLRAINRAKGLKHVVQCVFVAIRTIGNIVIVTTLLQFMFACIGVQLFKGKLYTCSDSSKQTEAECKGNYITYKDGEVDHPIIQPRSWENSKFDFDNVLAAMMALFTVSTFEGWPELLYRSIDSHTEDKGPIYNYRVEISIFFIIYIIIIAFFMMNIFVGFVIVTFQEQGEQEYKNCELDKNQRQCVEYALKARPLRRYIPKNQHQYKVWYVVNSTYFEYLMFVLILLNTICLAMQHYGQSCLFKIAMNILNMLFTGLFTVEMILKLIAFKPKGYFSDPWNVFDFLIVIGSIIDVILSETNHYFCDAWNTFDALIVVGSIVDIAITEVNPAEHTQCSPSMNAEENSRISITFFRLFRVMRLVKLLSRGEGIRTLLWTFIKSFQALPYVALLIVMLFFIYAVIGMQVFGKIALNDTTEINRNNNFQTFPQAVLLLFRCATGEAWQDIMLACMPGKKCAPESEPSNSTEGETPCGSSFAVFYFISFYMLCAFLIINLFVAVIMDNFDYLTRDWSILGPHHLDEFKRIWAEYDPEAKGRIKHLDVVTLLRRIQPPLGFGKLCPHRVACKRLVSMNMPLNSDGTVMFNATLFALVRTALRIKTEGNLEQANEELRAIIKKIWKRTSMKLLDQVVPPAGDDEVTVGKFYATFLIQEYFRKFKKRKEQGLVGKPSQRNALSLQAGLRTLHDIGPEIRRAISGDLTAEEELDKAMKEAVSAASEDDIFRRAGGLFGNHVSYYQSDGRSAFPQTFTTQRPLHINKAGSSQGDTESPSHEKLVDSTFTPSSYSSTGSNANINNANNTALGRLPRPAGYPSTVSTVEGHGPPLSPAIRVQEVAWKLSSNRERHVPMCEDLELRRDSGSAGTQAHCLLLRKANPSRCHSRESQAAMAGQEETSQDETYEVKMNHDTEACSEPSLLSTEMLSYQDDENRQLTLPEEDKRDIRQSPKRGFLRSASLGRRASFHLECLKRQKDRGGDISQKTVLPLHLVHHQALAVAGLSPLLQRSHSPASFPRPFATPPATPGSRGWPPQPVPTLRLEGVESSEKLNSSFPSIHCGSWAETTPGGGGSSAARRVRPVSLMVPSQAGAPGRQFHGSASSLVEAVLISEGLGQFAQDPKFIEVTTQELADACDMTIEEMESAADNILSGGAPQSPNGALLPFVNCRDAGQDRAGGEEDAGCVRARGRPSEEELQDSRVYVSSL
Chain of UniProt Q01727 (whole entry, looked up): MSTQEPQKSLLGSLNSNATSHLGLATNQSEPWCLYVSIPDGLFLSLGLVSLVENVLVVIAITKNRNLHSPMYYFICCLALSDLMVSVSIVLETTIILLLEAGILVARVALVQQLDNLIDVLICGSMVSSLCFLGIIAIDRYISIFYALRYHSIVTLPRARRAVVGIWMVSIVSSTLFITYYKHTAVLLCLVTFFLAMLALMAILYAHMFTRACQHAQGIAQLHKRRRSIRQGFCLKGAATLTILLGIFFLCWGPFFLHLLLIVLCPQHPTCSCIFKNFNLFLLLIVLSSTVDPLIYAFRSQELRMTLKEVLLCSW
Chain of UniProt O60502 (whole entry, looked up): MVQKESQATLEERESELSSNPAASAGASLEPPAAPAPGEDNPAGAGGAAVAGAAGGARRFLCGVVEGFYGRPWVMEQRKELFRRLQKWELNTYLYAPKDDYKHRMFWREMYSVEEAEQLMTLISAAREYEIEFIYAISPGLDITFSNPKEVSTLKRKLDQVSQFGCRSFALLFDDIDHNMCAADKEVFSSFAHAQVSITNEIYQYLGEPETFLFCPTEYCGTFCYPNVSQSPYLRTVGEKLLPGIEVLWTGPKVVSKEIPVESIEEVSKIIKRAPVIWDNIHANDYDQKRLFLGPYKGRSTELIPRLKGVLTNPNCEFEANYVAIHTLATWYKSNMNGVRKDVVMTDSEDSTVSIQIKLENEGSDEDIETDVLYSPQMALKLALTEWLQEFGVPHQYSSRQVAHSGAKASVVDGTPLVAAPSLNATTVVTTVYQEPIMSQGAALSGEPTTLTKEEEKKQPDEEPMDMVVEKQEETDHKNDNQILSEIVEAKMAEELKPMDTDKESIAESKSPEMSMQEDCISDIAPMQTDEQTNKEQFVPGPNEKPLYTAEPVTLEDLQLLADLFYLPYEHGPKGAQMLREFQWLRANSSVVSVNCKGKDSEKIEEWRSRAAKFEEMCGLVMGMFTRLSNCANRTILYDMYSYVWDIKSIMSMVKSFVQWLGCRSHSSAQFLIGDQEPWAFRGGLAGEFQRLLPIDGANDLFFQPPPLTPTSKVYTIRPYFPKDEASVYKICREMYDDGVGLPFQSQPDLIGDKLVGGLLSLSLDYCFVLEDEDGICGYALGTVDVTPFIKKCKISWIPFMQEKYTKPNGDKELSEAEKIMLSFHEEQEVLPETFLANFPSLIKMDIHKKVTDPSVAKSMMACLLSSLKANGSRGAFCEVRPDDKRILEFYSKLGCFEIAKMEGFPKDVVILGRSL
Chain of UniProt P05178 (whole entry, looked up): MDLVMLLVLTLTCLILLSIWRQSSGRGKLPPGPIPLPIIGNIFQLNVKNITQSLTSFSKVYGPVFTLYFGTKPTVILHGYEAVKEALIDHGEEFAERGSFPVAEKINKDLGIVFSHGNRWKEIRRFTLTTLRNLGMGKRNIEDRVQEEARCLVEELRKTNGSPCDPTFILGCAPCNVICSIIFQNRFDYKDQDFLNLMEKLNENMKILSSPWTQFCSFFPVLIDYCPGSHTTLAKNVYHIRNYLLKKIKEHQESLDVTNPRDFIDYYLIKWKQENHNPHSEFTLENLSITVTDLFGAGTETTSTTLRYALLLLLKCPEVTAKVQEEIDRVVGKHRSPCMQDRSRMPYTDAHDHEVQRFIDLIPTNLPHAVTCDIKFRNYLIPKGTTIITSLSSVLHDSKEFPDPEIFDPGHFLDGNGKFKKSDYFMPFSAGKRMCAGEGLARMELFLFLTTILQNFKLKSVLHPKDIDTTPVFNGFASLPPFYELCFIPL
Chain of UniProt P16257 (whole entry, looked up): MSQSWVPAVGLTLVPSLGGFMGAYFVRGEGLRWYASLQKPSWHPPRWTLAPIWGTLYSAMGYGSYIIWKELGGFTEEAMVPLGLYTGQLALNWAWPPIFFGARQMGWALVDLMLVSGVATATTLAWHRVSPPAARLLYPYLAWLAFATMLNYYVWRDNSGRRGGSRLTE

| SMILES | target | test | test system | setting | scale | quantity | value |
| --- | --- | --- | --- | --- | --- | --- | --- |
| CC(C)c1nc(CN(C)C(=O)NC(C(=O)NC(Cc2ccccc2)CC(O)C(N)Cc2ccccc2)C(C)C)cs1 (stereo not drawn) | CYP3A4 |  |  |  |  | Kd | 160 ± 40 nM |
| O=C(NCCCc1cccnc1)C(Cc1ccccc1)SCC(Cc1ccccc1)NS(=O)(=O)c1ccccc1 (stereo not drawn) | CYP3A4 | enzyme activity, inhibitor |  |  |  | IC50 | 260 nM |
| CC(C)C[C@H](NC(=O)CNC(=O)[C@H](CC(C)C)NC(=O)[C@@H]1CCCN1C(=O)OCC1c2ccccc2-c2ccccc21)C(=O)N[C@@H](CCCNC(=N)N)C(=O)N[C@@H](CO)C(=O)N[C@@H](CCCCN)C(=O)O | MMP9 (Homo sapiens, UniProt P14780) | protease stability, substrate, HPLC |  | 500 µM, 72 h, pH 7.5, 37 °C, together with: MMP9 10 U |  | residual substrate | not detected |
| O=c1c(/C=N/NC(=S)N/N=C/c2ccccc2O)coc2ccccc12 | Zn2+ complex | potentiometric titration |  | 25 °C |  | log stability constant | 17.1 |
| CCCC[C@H](NC(=O)CNC(=O)CNC(=O)CN1CCN(CC(=O)O)CCN(CC(=O)O)CCN(CC(=O)O)CC1)C(=O)N[C@H]1CC(=O)NCCCC[C@@H](C(N)=O)NC(=O)[C@H](Cc2c[nH]c3ccccc23)NC(=O)[C@H](CCCNC(=N)N)NC(=O)[C@@H](Cc2ccccc2)NC(=O)[C@H](Cc2c[nH]cn2)NC1=O [copper-64 labelled] | Mc1r (Mus musculus, UniProt Q01727) | non-specific uptake | female C57 mice, B16/F1 melanoma, melanoma tumour | intravenous, dose not given, 2 h, together with: NDP-MSH 10 µg blockade |  | tissue uptake | 2.71 ± 0.42 %ID/g |
| C[C@H](NC(=O)[C@H](Cc1ccccc1)NC(=O)[C@H](CO)NC(=O)[C@H](CO)NC(=O)[C@@H](NC(=O)[C@H](CCCNC(=N)N)NC(=O)[C@@H]1CCCN1C(=O)[C@H](CCCNC(=N)N)NC(=O)CN)[C@@H](C)O)C(=O)N[C@@H](CCC(=O)O)C(=O)NCC(=O)O | chymotrypsin | substrate |  |  |  | time to degradation | ≤ 0.5 h |
| O=C(O)[C@@H]1C[C@@H](O)CN1C(=O)[C@@H]1CCCN1 | iron(III) |  |  | MA2 complex, I 0.15 M NaCl |  | ΔS of complex formation | -0.48 kJ/mol/K |
| CC(C)C[C@@H]1NC(=O)[C@H](C)NC(=O)[C@H](CC2CCN(C(=N)N)CC2)NC(=O)[C@H](Cc2ccccc2)NC(=O)[C@H](CCCNC(=N)N)NC(=O)[C@H](C)NC(=O)[C@@H]2CCCN2C(=O)[C@@H](N)CSSC[C@@H](C(=O)O)NC(=O)[C@H](Cc2c[nH]c3ccccc23)NC1=O | plasmin | substrate |  |  |  | cleavage rate | 0.059 %/(h·nM plasmin) |
| NS(=O)(=O)Nc1ncnc(OCCOc2ncc(Br)cn2)c1-c1ccc(Br)cc1 | Cytochrome P450 2C6 (Cyp2c6, Rattus norvegicus, UniProt P05178) | metabolite formation | female rat, recombinant enzyme | scaled by relative mRNA abundance |  | contribution to total CLint | 9% |
| COc1ccc2cc(NC(=O)c3cc(-c4cccnc4)nc4ccccc34)ccc2c1 | CYP3A4 | substrate, item: metabolites M1 plus M2 | baculosomes |  |  | kcat/Km | 42700 M⁻¹ s⁻¹ |
| CC(C)(C)OC[C@@H](NC(=O)CNC(=O)CN1CCN(CC(=O)OC(C)(C)C)CCN(CC(=O)OC(C)(C)C)CCN(CC(=O)OC(C)(C)C)CC1)C(=O)N[C@H](COC(C)(C)C)C(=O)NCC(=O)NCC(=O)NCC(=O)N[C@@H](Cc1ccccc1)C(=O)O | CTSB | substrate, LC/MS |  | 24 h, pH 5.0, room temperature |  | metabolized peptide | 56% |
| O=c1c(/C=N/NC(=S)N/N=C/c2cc(Cl)ccc2O)coc2ccccc12 | Zn2+ complex | potentiometric titration |  | 25 °C |  | log stability constant | 17.3 |
| CN(C(=O)c1ccc2ccccc2c1)[C@H]1NC(=O)[C@H](Cc2ccccc2)NC(=O)[C@H](NC(=O)[C@@H](N)Cc2ccc(Cl)cc2)CSSC[C@@H](C(=O)N[C@@H](Cc2ccc3ccccc3c2)C(N)=O)NC(=O)[C@H](Cc2ccccc2)NC(=O)[C@H](CCCCN)NC1=O | trypsin | substrate, RP-HPLC |  | concentration not given, 6 days, pH 8.1 |  | hydrolysis | 28% |
| [64Cu+2].c1ccc(CNCc2ccc(CN3CCCN4CCNCCCN(CC4)CC3)cc2)nc1 | CXCR4 |  | NOD/SCID mouse, U87 and U87-stb-CXCR4 xenografts, muscle | iv, 30 min, ex vivo |  | tissue uptake | 0.46 ± 0.08 %ID/g |
| CC(=O)Nc1ncc(CN2CC[C@H](Oc3cccc([18F])n3)C[C@@H]2C)s1 | Protein O-GlcNAcase (OGA, Homo sapiens, UniProt O60502) | PET | healthy human, striatum and cerebellum |  |  | time to peak uptake | 25 min |
| CCOc1c(C(C)(C)O)sc2cnc(Nc3ccc(N4CCC(N5CC6(COC6)C5)CC4)cc3OC)nc12 | CACNA1C | ion current, inhibitor, patch clamp |  | 30 µM |  | inhibition | 45% |
| [64Cu+2].c1cnc(CNCc2ccc(CN3CCCN4CCNCCCN(CC4)CC3)cc2)nc1 | CXCR4 |  | NOD/SCID mouse, U87 and U87-stb-CXCR4 xenografts | iv, 90 min, no blocking dose | relative to: U87-stb-CXCR4 tumour over muscle | tumour-to-muscle ratio | 106 ± 17.2 |
| COc1cc(-c2nc3ccccc3s2)cc(CN2CCN(CC(=O)OC(C)C)CCN(CC(=O)OC(C)C)CC2)c1O | copper(II) ion | metal chelation, spectrophotometric titration | aqueous solution | 50 µM, pH 6.6, together with: Cu(II) 50 µM | higher = stronger binding | pCu | 10.3 |
| CCCCCCCCCCCCCCCC(=O)OCC(CSC[C@H](N)C(=O)N[C@@H](CO)C(=O)N[C@@H](CCCCN)C(=O)N[C@@H](CCCCN)C(=O)N[C@@H](CCCCN)C(=O)N[C@@H](CCCCN)C(=O)NCCCCCC(=O)N[C@@H](CCCCN)C(=O)N[C@@H](CC(C)C)C(=O)N[C@H](C(=O)N[C@@H](Cc1ccccc1)C(=O)N[C@@H](Cc1ccccc1)C(=O)N[C@@H](Cc1ccc2ccccc2c1)C(=O)O)C(C)C)OC(=O)CCCCCCCCCCCCCCC (stereo partly drawn) | Amyloid-beta precursor protein, fibrillar amyloid-beta (APP, Homo sapiens, UniProt P05067) | dynamic light scattering | supernatant | compound alone |  | hydrodynamic diameter | ~66 nm |
| COc1cc(-c2nc3ccccc3s2)cc(CN2CCN(CC(=O)O)CCN(CC(=O)O)CC2)c1O | copper(II) ion | metal chelation, spectrophotometric titration | aqueous solution | 50 µM, pH 6.6, together with: Cu(II) 50 µM | higher = stronger binding | pCu | 11.5 |
| O=C(NCc1cccc(CN2CCCC2=O)c1)NCC(c1ccccc1)c1ccccc1 | CACNA1C | calcium signal, fluorescence |  |  |  | IC50 | > 30000 nM |
| O=C(CCC(=O)OCCNC(=O)[C@@H](Cc1ccccc1)NC(=O)[C@@H](Cc1ccccc1)NC(=O)CCNc1ccc([N+](=O)[O-])c2nonc12)NCCS(=O)(=O)O | porcine liver esterase | substrate |  | 1.0 wt%, 24 h, pH 7.4, together with: esterase 1 U/mL |  | conversion | ~11% |
| C=C(C)C(=O)NCCCCCC(=O)N[C@@H](Cc1ccccc1)C(=O)N[C@@H](CCCCN)C(=O)N[C@@H](Cc1ccccc1)C(=O)N[C@@H](CC(C)C)C(=O)NCCCCCC(=O)N[C@H](CCCCN)C(=O)N[C@H](CCCCN)C(=O)N[C@H](CCCCN)C(=O)N[C@H](CCCCN)C(=O)N[C@H](CCCCN)C(=O)N[C@H](CCCCN)C(=O)N[C@H](CCCCN)C(=O)N[C@H](CCCCN)C(=O)N[C@H](CCCCN)C(=O)N[C@H](CCCCN)C(N)=O | CTSB | substrate, MALDI-TOF MS |  | 65 µM, pH 5, 37 °C |  | degradation time | ≤ 5 min |
| O=C(CNC(=O)C(F)(F)F)NC(CSC(Cc1ccccc1)C(=O)NCCCc1cccnc1)Cc1ccccc1 (stereo not drawn) | CYP3A4 |  |  | 16 µM, 2 h, together with: 10 mM H2O2 | relative to: ligand-free enzyme | heme destroyed | 28% |
| NC(=S)N/N=C/c1ccccc1O | Zn2+ complex | potentiometric titration |  | 25 °C |  | log stability constant | 17.6 |
| CCc1cc(C)nc2c(CC(=O)N(CC)CC)c(-c3ccc(OCC[18F])cc3)nn12 | Tspo (Rattus norvegicus, UniProt P16257) | Logan plot analysis | rat C6 glioma model, tumor | dose not given, 60 min dynamic PET |  | total distribution volume | 7.35 ± 1.26 mL/cm3 |
| COC(=O)CN1CCN(CC(=O)OC)CCN(Cc2cc(-c3nc4ccccc4s3)cc(OC)c2O)CC1 | copper(II) ion | metal chelation, spectrophotometric titration | aqueous solution | 50 µM, pH 6.6, together with: Cu(II) 50 µM | higher = stronger binding | pCu | 9.4 |
| NC(=O)N/N=C/c1ccccn1 | Zn2+ complex | potentiometric titration |  | 25 °C |  | log stability constant | 16.6 |
| COc1cc(-c2nc3ccccc3s2)cc(CN2CCN(CC(=O)OC(C)(C)C)CCN(CC(=O)OC(C)(C)C)CC2)c1O | copper(II) ion | metal chelation, spectrophotometric titration | aqueous solution | 50 µM, pH 7.4, together with: Cu(II) 50 µM | higher = stronger binding | pCu | 11.3 |
| CC(=O)OC1(C(C)=O)CCC2C3C=C(C)C4=CC(=O)C(O)CC4(C)C3CCC21C (stereo not drawn) | CYP3A4 | substrate | recombinant enzyme | 28 µM, 25 min |  | formation rate | 2.6 ± 0.04 pmol/min/pmol P450 |

Repeated from above:
| SMILES | target | test | test system | setting | scale | quantity | value |
| --- | --- | --- | --- | --- | --- | --- | --- |
| O=C(CNC(=O)C(F)(F)F)NC(CSC(Cc1ccccc1)C(=O)NCCCc1cccnc1)Cc1ccccc1 (stereo not drawn) | CYP3A4 |  |  | 16 µM, 2 h, together with: 10 mM H2O2 | relative to: ligand-free enzyme | heme destroyed | 28% |
| COc1cc(-c2nc3ccccc3s2)cc(CN2CCN(CC(=O)OC(C)C)CCN(CC(=O)OC(C)C)CC2)c1O | copper(II) ion | metal chelation, spectrophotometric titration | aqueous solution | 50 µM, pH 6.6, together with: Cu(II) 50 µM | higher = stronger binding | pCu | 10.3 |
| O=C(NCc1cccc(CN2CCCC2=O)c1)NCC(c1ccccc1)c1ccccc1 | CACNA1C | calcium signal, fluorescence |  |  |  | IC50 | > 30000 nM |
| CC(=O)Nc1ncc(CN2CC[C@H](Oc3cccc([18F])n3)C[C@@H]2C)s1 | Protein O-GlcNAcase (OGA, Homo sapiens, UniProt O60502) | PET | healthy human, striatum and cerebellum |  |  | time to peak uptake | 25 min |
| CCCCCCCCCCCCCCCC(=O)OCC(CSC[C@H](N)C(=O)N[C@@H](CO)C(=O)N[C@@H](CCCCN)C(=O)N[C@@H](CCCCN)C(=O)N[C@@H](CCCCN)C(=O)N[C@@H](CCCCN)C(=O)NCCCCCC(=O)N[C@@H](CCCCN)C(=O)N[C@@H](CC(C)C)C(=O)N[C@H](C(=O)N[C@@H](Cc1ccccc1)C(=O)N[C@@H](Cc1ccccc1)C(=O)N[C@@H](Cc1ccc2ccccc2c1)C(=O)O)C(C)C)OC(=O)CCCCCCCCCCCCCCC (stereo partly drawn) | Amyloid-beta precursor protein, fibrillar amyloid-beta (APP, Homo sapiens, UniProt P05067) | dynamic light scattering | supernatant | compound alone |  | hydrodynamic diameter | ~66 nm |
